Measurements of several laboratories.
Numbered parts are unrelated; each lists some results of a single study.

Sample 1
Target: Sal-like protein 4, full length isoform B (SALL4, Homo sapiens, UniProt Q9UJQ4-2, residues 1-616)
Method: universal PBM
Form: double-stranded DNA, one strand shown
Sample: in vitro
Concentration: not given
Setting: 8-mer, flanks averaged, mean of replicates
Direction: higher = stronger binding
Construct (chain): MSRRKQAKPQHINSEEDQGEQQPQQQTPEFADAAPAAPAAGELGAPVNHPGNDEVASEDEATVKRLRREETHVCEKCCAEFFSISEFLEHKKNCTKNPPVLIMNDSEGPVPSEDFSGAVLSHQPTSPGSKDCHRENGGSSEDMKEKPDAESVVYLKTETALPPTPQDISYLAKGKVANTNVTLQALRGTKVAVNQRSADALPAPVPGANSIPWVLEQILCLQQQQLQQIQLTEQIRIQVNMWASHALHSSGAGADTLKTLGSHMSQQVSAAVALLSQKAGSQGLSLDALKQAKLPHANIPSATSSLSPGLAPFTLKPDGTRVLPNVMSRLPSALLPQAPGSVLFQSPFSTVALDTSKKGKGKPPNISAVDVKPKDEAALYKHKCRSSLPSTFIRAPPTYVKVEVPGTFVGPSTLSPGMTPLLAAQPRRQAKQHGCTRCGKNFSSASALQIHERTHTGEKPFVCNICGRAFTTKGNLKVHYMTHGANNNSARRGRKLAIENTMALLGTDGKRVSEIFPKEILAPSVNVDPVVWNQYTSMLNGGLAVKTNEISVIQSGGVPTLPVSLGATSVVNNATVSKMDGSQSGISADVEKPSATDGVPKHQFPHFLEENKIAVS
`CAGCATGA` gave an E-score of -0.0885.
With `CTTTACTC` the E-score was 0.105.
The E-score of `CCAAATAG` is reported as 0.0616.
With `ACGCAGCA` the E-score was -0.111.
With `GCGGCCTA` the E-score was -0.266.

Sample 2
Target: Interferon regulatory factor 5, full length, phosphomimetic (IRF5, Homo sapiens, UniProt Q13568-2, residues 1-514, K96S/S451D/S453D/S456D/S462D)
Method: protein-binding microarray
Form: double-stranded DNA, one strand shown
Sample: in vitro
Concentration: 250 nM
Setting: 60-bp whole probe
Added: salmon DNA 0.4 mg/ml
Reference: random background probes
Direction: higher = stronger binding
Constant ends, left off below: GCCTAGCAC … GTCTTGATTCGCTTGACGCTGCTG
`TTAGATCTCAGTCTCGGTTAGTGCTAG` gave a log fluorescence of 1.14 z-score.
For `GACGGACTGCTTCTCGTGACGTGCTAG`, the log fluorescence was -0.436 z-score.
For `TTAGAACTGCTTTTCCTTTAGTGCTAG`, the log fluorescence was 0.544 z-score.
With `TTTGGACTGGACTTTCGGTTAGTGCTA` the log fluorescence was 9.58 z-score.
For `GACGGTATCGGACTGAGGACGTGCTAG`, the log fluorescence was 1.16 z-score.

Sample 3
Target: Histone acetyltransferase KAT6A, both winged helices, GST fusion (KAT6A, Homo sapiens, UniProt Q92794, residues 1-181)
Method: protein binding microarray
Form: double-stranded DNA, one strand shown
Sample: in vitro
Concentration: not given
Setting: 8-mer, flanks averaged, mean of 2 arrays, mostly near background
Reference: not given
Direction: higher = stronger binding
Construct (chain): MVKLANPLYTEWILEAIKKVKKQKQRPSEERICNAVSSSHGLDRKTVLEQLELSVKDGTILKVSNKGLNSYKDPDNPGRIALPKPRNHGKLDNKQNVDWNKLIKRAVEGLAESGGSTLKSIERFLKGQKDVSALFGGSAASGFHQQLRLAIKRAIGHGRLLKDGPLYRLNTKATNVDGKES
`GTTCGTCA` gave an E-score of 0.0416.
`GACCCTAC` gave an E-score of -0.148.
For `AAGCACTA`, the E-score was -0.188.
The E-score of `ATCTTGTG` is reported as -0.176.
With `ATGTAGAC` the E-score was -0.017.

Single results of other studies
For `PhoQ, residues 284 288 289 292 302 303 SCEHLI`, the fold induction was 7.9 (PhoP, residues 12 14 15 18 19 IFFTR (Escherichia coli, UniProt P23836); Sort-seq, measured: YFP reporter; E. coli; PhoQ-PhoP variant library, added: 10 µM Mg2+; reference: high Mg2+ state, higher = stronger signaling).

Repeated from above (sample 2):
With `TTTGGACTGGACTTTCGGTTAGTGCTA` the log fluorescence was 9.58 z-score.
